Experimental data from different studies.
± marks the error that the study gave.
Organism: Toxoplasma gondii

`CC(C)(C)c1nn(-c2cc(OCc3cn(Cc4cccc(C(F)(F)F)c4)nn3)c(Cl)cc2Cl)c(=O)o1` has an IC50 of 1 ± 0.4 µM (intracellular growth; HFF, Δppo PPO-complemented; 96 h).
The EC50 of `CCCCCCCc1cc(O)c2ccccc2[n+]1[O-]` is reported as 0.995 µM (parasite growth, qPCR; Vero, tachyzoites; 24 h).
With `OCC1CC(n2cnc3c(SCc4ccc(Cl)c(Cl)c4)ncnc32)C(O)C1O` (stereo not shown) the IC50 was 14.4 ± 0.6 µM (parasite growth, radiolabelled uracil incorporation; RH wild type, tissue culture).
`N#CSCCOc1cccc(Oc2ccc(Cl)cc2)c1` has an IC50 of 3.9 µM (growth; tachyzoites).
For `CC(C)(C)c1nn(-c2cc(OCc3cn(Cc4ccc(C(F)(F)F)cc4)nn3)c(Cl)cc2Cl)c(=O)o1`, the IC50 was 0.7 ± 0.1 µM (intracellular growth; HFF, Δppo PPO-complemented; 96 h).
For `N#CSCCOc1cccc(Oc2ccccn2)c1`, the IC50 was > 10 µM (tachyzoites).
`CCc1nc(N)nc(N)c1-c1ccc(Cl)cc1` gave a survival of 90% (ME49, Swiss-Webster mice; intraperitoneal, 5.0 mg/kg/day, 10 days dosing, 40 days observed).
`OCC1CC(n2cnc3c(SCc4ccc(Cl)cc4Cl)ncnc32)C(O)C1O` (stereo not shown) has an IC50 of 18.6 ± 0.9 µM (parasite growth, radiolabelled uracil incorporation; RH wild type, tissue culture).
With `Cc1cccc(Cn2cc(COc3cc(-n4nc(C(C)(C)C)oc4=O)c(Cl)cc3Cl)nn2)c1` the IC50 was 0.9 ± 0.5 µM (intracellular growth; HFF, Δppo PPO-complemented; 96 h).
For `COc1ccccc1Oc1cccc(OCCSC#N)c1`, the IC50 was 2.79 ± 0.42 µM (tachyzoites).
The IC50 of `COC(=O)c1ccc(CSc2ncnc3c2ncn3C2CC(CO)C(O)C2O)cc1` (stereo not shown) is reported as 12.8 ± 0.3 µM (parasite growth, radiolabelled uracil incorporation; RH wild type, tissue culture).
For `COc1cccc(Oc2cccc(OCCSC#N)c2)c1`, the IC50 was 4 µM (growth; tachyzoites).
The IC50 of `Cc1ccc(CSc2ncnc3c2ncn3C2CC(CO)C(O)C2O)c(C)c1C` (stereo not shown) is reported as 16.1 ± 1.2 µM (parasite growth, radiolabelled uracil incorporation; RH wild type, tissue culture).
